{"data": "Published values from different studies", "note": "Compare with care: the assays were run in different laboratories. ± gives the spread as reported.", "chain of UniProt F8G0P2 (whole entry, unmodified, looked up)": "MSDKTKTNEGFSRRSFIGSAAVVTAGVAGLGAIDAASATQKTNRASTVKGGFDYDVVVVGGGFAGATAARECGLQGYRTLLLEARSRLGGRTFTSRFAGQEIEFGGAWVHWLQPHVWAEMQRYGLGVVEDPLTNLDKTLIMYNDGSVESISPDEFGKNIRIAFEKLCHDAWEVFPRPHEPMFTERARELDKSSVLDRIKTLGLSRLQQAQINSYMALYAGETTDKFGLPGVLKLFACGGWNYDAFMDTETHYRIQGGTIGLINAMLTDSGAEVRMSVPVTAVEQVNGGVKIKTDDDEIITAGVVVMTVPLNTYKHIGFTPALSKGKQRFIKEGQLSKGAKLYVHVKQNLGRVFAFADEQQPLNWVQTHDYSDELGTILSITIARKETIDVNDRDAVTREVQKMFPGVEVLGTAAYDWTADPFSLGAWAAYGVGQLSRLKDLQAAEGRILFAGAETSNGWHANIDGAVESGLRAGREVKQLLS", "chain of UniProt P01317 (whole entry, looked up)": "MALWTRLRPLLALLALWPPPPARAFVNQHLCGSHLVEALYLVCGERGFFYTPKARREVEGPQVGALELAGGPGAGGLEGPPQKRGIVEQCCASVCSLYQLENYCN"}
{"Molecule": "CC(=O)NCC(=O)N1CCC[C@H]1C(=O)N[C@@H](CC(=O)O)C(=O)N[C@H]1CSSC[C@@H](C(=O)N[C@H](C(=O)N[C@@H](Cc2ccccc2)C(=O)N[C@@H](C)C(N)=O)[C@@H](C)O)NC(=O)[C@H](Cc2c[nH]c3ccccc23)NC(=O)[C@H](C(C)C)NC(=O)[C@H](CC(C)C)NC(=O)[C@H](CCC(=O)O)NC(=O)CNC(=O)[C@H](CCCCN)NC(=O)[C@H](Cc2c[nH]cn2)NC(=O)[C@H](Cc2ccc(O)cc2)NC(=O)[C@H](C)NC1=O", "tested on": "Immunoglobulin heavy constant gamma 1 (IGHG1, Homo sapiens, UniProt P01857)", "assay": "binding, SPR", "setting": "pH 7.4, together with: immobilized Herceptin", "endpoint": "Kd", "result": "696 ± 2 nM"}
{"Molecule": "Cj1438c (Campylobacter jejuni, UniProt Q0P8H6)", "tested on": "Nc1ncnc2c1ncn2[C@@H]1O[C@H](COP(=O)(O)OP(=O)(O)OP(=O)(O)O)[C@@H](O)[C@H]1O", "assay": "steady-state kinetics", "setting": "pH 8, 25 °C, apparent", "endpoint": "kcat/Km", "result": "62000 ± 5000 M⁻¹ s⁻¹"}
{"Molecule": "hdhb E18D/G39D/R40A/R41A/T17A (Clostridium sardiniense)", "tested on": "NC(=O)c1ccc[n+]([C@@H]2O[C@H](COP(=O)(O)OP(=O)(O)OC[C@H]3O[C@@H](n4cnc5c(N)ncnc54)[C@H](O)[C@@H]3O)[C@@H](O)[C@H]2O)c1", "assay": "steady-state kinetics", "setting": "pH 8, 25 °C, cofactor varied", "endpoint": "kcat", "result": "0.32 ± 0.01 s⁻¹"}
{"Molecule": "COC(=O)[C@H]1[C@@H](OC(=O)c2ccccc2)C[C@@H]2CC[C@H]1N2C", "tested on": "Na+ channel rabbit brain", "assay": "BTX-activated channels", "scale": "relative to: Kd (+) over Kd (-)", "endpoint": "selectivity ratio", "result": "~20"}
{"Molecule": "nicA2 T250V/T381V (Pseudomonas putida)", "tested on": "CN1CCC[C@H]1c1cccnc1", "assay": "steady-state kinetics", "setting": "pH 7.4, 22 °C", "endpoint": "kcat/Km", "result": "10300 M⁻¹ s⁻¹"}
{"Molecule": "hdhb E18D/G39D/R40L/R41N/T17A (Clostridium sardiniense)", "tested on": "NC(=O)c1ccc[n+]([C@@H]2O[C@H](COP(=O)(O)OP(=O)(O)OC[C@H]3O[C@@H](n4cnc5c(N)ncnc54)[C@H](O)[C@@H]3O)[C@@H](O)[C@H]2O)c1", "assay": "steady-state kinetics", "setting": "pH 8, 25 °C, cofactor varied", "endpoint": "kcat/Km", "result": "234 M⁻¹ s⁻¹"}
{"Molecule": "nicA2 (Pseudomonas putida, UniProt F8G0P2)", "tested on": "CN1CCC[C@H]1c1cccnc1", "assay": "steady-state kinetics", "setting": "pH 7.4, 22 °C", "endpoint": "kcat/Km", "result": "53500 M⁻¹ s⁻¹"}
{"Molecule": "insulin", "tested on": "Insulin (INS, Bos taurus, UniProt P01317)", "assay": "circular dichroism", "setting": "0 min", "endpoint": "α-helix content", "result": "53.9%"}
